Measured values gathered from unrelated publications.
Every numbered part comes from another study and shows a few of its results, in no order. Values joined by “and” are separate records of one study, mostly repeats; a detail may differ.
Chain of UniProt Q9P0L2 (whole entry, looked up): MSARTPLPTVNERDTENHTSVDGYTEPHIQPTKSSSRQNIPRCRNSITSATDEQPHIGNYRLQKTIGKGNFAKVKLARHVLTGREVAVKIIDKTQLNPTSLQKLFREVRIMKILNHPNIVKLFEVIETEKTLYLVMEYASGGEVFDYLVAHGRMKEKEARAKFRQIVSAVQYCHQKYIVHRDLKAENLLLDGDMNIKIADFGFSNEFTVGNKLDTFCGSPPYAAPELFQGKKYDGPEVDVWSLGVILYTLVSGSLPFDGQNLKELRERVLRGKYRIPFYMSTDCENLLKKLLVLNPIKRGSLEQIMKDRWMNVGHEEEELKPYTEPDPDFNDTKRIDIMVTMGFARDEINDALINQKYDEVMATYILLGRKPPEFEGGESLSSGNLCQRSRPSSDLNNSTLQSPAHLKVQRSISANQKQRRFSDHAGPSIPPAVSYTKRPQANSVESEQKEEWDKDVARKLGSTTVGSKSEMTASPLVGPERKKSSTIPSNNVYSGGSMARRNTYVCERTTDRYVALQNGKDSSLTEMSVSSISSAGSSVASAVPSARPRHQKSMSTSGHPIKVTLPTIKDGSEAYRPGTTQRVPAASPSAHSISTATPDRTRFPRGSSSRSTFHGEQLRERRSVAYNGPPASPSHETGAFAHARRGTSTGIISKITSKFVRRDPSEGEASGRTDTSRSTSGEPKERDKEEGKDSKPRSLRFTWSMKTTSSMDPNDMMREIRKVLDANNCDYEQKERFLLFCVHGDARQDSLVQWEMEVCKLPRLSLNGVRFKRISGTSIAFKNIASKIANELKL
Chain of UniProt P54753 (whole entry, looked up): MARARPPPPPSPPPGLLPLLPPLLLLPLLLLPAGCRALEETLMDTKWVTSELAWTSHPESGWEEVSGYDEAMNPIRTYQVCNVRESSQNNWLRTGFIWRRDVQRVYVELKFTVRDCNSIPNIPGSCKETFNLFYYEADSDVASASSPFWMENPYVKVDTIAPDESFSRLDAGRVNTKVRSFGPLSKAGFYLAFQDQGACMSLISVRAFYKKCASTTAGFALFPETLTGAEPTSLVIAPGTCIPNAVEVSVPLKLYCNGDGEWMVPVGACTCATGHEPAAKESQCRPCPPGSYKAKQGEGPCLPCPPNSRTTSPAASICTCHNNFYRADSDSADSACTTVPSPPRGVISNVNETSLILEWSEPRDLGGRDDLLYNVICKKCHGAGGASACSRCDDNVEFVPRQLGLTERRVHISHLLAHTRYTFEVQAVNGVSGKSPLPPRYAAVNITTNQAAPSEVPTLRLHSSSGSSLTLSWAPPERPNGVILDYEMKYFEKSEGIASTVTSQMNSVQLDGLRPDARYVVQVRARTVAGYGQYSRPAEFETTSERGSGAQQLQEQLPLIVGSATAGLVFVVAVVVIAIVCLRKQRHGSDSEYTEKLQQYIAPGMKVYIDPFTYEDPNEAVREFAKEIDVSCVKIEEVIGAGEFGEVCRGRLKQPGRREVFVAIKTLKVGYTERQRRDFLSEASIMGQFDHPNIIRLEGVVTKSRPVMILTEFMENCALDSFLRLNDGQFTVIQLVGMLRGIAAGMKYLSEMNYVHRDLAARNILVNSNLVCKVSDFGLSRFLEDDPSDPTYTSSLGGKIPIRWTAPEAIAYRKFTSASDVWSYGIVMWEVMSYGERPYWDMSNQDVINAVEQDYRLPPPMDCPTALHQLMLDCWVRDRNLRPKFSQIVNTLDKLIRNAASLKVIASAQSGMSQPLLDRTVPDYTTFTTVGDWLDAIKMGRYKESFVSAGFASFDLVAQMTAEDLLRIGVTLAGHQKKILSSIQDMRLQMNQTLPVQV
Chain of UniProt P23458 (whole entry, looked up): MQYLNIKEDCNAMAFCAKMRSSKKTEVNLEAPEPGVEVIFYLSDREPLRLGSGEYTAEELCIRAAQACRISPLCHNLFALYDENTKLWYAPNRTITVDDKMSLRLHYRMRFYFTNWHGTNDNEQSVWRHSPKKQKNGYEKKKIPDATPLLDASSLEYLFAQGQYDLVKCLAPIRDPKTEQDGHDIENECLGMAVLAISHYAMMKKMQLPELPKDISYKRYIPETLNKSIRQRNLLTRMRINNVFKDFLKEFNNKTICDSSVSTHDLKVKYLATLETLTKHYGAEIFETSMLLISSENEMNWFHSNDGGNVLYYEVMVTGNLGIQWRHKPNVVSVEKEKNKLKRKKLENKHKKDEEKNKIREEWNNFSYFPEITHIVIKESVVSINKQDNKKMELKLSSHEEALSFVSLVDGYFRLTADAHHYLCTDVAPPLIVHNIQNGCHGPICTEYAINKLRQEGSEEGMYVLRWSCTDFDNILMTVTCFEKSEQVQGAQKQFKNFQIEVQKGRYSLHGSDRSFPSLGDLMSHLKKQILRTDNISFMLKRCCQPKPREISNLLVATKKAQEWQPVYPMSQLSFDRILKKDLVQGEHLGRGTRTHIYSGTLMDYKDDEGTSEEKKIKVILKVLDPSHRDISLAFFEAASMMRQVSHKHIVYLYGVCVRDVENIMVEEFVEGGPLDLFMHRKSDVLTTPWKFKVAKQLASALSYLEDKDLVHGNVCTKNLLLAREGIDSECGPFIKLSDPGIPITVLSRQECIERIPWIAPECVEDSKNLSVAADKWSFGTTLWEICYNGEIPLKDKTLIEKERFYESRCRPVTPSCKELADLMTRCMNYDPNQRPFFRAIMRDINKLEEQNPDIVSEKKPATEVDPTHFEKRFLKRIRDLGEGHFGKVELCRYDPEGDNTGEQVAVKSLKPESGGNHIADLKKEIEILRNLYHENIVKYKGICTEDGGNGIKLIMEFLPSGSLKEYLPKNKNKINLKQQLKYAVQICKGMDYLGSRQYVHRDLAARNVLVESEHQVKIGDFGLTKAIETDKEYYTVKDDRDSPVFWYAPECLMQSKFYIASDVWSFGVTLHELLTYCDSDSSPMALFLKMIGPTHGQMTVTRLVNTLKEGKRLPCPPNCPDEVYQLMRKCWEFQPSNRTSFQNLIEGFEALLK
Chain of UniProt P43115 (whole entry, looked up): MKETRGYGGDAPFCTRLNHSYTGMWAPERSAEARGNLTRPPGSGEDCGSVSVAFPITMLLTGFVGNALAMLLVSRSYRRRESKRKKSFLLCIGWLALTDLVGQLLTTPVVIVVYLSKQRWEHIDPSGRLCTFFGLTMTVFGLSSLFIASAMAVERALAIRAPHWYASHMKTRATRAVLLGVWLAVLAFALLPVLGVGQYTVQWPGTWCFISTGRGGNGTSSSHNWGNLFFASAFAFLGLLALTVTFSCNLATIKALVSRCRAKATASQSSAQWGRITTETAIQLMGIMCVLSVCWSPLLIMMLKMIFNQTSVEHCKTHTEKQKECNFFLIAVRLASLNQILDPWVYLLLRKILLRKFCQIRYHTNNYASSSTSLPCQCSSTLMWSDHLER
Chain of UniProt Q14012 (whole entry, looked up): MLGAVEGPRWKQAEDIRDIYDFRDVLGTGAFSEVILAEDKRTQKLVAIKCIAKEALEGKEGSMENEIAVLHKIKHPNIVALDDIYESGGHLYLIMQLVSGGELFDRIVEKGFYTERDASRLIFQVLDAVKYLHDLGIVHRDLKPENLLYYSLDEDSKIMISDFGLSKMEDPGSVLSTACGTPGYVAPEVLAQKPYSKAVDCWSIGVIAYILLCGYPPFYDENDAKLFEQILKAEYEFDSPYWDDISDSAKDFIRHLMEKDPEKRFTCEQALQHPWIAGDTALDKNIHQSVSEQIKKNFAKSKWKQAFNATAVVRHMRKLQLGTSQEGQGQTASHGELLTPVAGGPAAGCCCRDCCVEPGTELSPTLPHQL
Chain of UniProt P11309 (whole entry, looked up): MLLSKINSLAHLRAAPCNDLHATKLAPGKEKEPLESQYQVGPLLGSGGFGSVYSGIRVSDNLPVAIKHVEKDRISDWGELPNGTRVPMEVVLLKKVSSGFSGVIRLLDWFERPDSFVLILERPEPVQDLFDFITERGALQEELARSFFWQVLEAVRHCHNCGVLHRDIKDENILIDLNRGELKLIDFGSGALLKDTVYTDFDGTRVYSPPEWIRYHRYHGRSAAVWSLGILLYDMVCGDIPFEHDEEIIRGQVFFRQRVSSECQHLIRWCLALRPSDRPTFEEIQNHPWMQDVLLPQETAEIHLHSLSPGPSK
Chain of UniProt Q04759 (whole entry, looked up): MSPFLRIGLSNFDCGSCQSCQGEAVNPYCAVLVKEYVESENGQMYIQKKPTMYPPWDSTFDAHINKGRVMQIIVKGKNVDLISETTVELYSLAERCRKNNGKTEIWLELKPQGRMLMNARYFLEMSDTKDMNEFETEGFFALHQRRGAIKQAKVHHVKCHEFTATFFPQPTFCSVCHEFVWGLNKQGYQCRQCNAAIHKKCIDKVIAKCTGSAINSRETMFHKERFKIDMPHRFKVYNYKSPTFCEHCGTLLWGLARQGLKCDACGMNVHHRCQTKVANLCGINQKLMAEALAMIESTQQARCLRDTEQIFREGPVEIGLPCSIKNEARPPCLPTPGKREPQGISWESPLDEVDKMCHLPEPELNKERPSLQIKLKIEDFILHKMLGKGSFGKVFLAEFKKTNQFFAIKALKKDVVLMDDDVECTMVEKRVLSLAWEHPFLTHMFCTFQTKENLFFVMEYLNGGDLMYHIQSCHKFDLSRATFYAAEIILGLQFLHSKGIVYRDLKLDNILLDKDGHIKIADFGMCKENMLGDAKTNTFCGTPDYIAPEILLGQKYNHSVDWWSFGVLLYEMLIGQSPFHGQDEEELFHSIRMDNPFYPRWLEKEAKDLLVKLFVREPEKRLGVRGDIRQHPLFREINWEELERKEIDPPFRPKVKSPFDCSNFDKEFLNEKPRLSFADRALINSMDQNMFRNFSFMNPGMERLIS

Block 1 — matrix: hydrocarbon/water
| SMILES | logD |
| --- | --- |
| CCCN1CC(=O)N[C@@H](C2CCCCC2)C(=O)N2CCC[C@@H]2C(=O)N(C)[C@@H](C)C(=O)N[C@@H](CC2CCCCC2)C(=O)N(C)[C@@H](C)C(=O)N[C@@H](CC(C)C)C(=O)N(C)Cc2cn(nn2)CC(=O)N[C@@H](CC(C)C)C1=O | 1.52 |
| CCOC(=O)[C@@H]1CSCC(=O)N[C@@H](CC)C(=O)N(C)[C@@H](C)C(=O)N[C@@H](CC(C)C)C(=O)N2CCC[C@H]2C(=O)N(CC(C)C)CC(=O)N[C@@H](CC(C)C)C(=O)N(C)[C@H](C)C(=O)N[C@@H](CC(C)C)C(=O)N1C | 0.585 |
| CC[C@@H]1NC(=O)[C@@H](CC(C)C)NC(=O)[C@H](CC(C)C)NC(=O)[C@H](Cc2ccccc2)NC(=O)[C@H]2CCCN2C(=O)[C@H](CC(C)C)NC1=O | 0.642 |
| CCOC(=O)[C@@H]1CSCC(=O)N[C@H](CC)C(=O)N(CC(C)C)CC(=O)N[C@@H](CC(C)C)C(=O)N(C)[C@H](C)C(=O)N(C)[C@@H](C)C(=O)N[C@@H](CC(C)C)C(=O)N(C)[C@H](C)C(=O)N[C@@H](CC(C)C)C(=O)N1C | 0.987 |
| CCC[C@@H]1NC(=O)CN(CCC)C(=O)[C@H](CC(C)C)NC(=O)Cn2cc(nn2)CN(C)C(=O)[C@H](CC(C)C)NC(=O)[C@H](C)N(C)C(=O)[C@H](CC(C)C)NC(=O)[C@H](C)N(C)C(=O)[C@H]2CCCN2C1=O | -0.638 |
| CCCN1CC(=O)N[C@@H](CC)C(=O)N(C)[C@@H](C)C(=O)N[C@@H](CC(C)C)C(=O)N(C)Cc2cn(nn2)CC(=O)N[C@@H](CC(C)C)C(=O)N(C)[C@@H](C)C(=O)N[C@@H](CC(C)C)C(=O)N2CCC[C@@H]2C1=O | -1.09 |
| CCCN1CC(=O)N[C@@H](CC(C)C)C(=O)N(C)[C@@H](C)C(=O)N[C@@H](CC(C)C)C(=O)N(C)Cc2cn(nn2)CC(=O)N[C@@H](CC(C)C)C(=O)N(C)[C@@H](C)C(=O)N[C@@H](CC(C)C)C(=O)N2CCC[C@@H]2C1=O | 0.0651 |
| CC(C)CC1NC(=O)CN(CC2CCOCC2)C(=O)C2CCCN2C(=O)C(CC(C)C)NC(=O)C(C)N(C)C(=O)C(CC(C)C)NC(=O)CN(Cc2ccc3c(c2)OCO3)C(=O)C2CCCN2C(=O)C(C)NC(=O)C(C)N(C)C1=O (stereo not shown) | 1.66 |

Block 2 — method: Incucyte 3D growth; concentration: 30 µM; direction: higher = more growth
SMILES: CC(C)(C(=O)O)[C@H](NC(=O)Cc1cccc(I)c1)c1ccc2oc(=O)[nH]c2c1
| cell line | time | spheroid area |
| --- | --- | --- |
| NCI-H1437 | 162 h | 3.35e+07 a.u. and 2.98e+07 a.u. and 4.6e+07 a.u. and 3.59e+07 a.u. and 3.34e+07 a.u. and 5.15e+07 a.u. |
| KP-4 | 156 h | 2.47e+07 a.u. and 2.53e+07 a.u. and 1.71e+07 a.u. and 2.43e+07 a.u. and 2.15e+07 a.u. and 2.24e+07 a.u. |
| NCI-H358 | 36 h | 4.41e+06 a.u. and 3.41e+06 a.u. and 4.18e+06 a.u. and 3.63e+06 a.u. and 4.03e+06 a.u. and 3.88e+06 a.u. |
| KP-4 | 78 h | 1.55e+07 a.u. and 1.34e+07 a.u. and 1.75e+07 a.u. and 1.58e+07 a.u. and 1.65e+07 a.u. and 1.39e+07 a.u. |
| MEL-JUSO | 276.52 h | 2.07e+07 a.u. and 1.78e+07 a.u. and 2.52e+07 a.u. and 2.29e+07 a.u. and 2.27e+07 a.u. and 3.77e+07 a.u. |

Block 3 — SMILES: CCN(c1nc(N)c(C(=O)N=C(N)N)nc1Cl)C(C)C; read-out: β-arrestin recruitment; mode: agonist; method: PRESTO-Tango; concentration: 10 µM; relative to: untreated
| target | fold over basal |
| --- | --- |
| PTGER3 (Homo sapiens, UniProt P43115) | 0.84 |
| G-protein coupled receptor 182 (GPR182, Homo sapiens, UniProt O15218) | 0.92 |
| G-protein coupled receptor 151 (GPR151, Homo sapiens, UniProt Q8TDV0) | 0.73 |
| PTH2R (Homo sapiens, UniProt P49190) | 0.66 |
| AGTR2 (Homo sapiens, UniProt P50052) | 1.58 |
| ADGRG3 (Homo sapiens, UniProt Q86Y34) | 1.1 |
| Nociceptin receptor (OPRL1, Homo sapiens, UniProt P41146) | 0.33 |

Block 4 — read-out: cell-free assay; method: competition with immobilised ligand; concentration: 0.1 µM
Compound: CC(C)CC(=O)N1CCc2nc(-c3ccc(Br)cc3)nc(N(C)Cc3ccccc3)c2C1
| target | remaining binding [%] |
| --- | --- |
| COQ8B (Homo sapiens, UniProt Q96D53) | 100 |
| Ribosomal protein S6 kinase alpha-2, N-terminal kinase domain (RPS6KA2, Homo sapiens, UniProt Q15349) | 100 |
| PAK1 (Homo sapiens, UniProt Q13153) | 100 |
| NUAK1 (Homo sapiens, UniProt O60285) | 100 |
| Ribosomal protein S6 kinase alpha-5, N-terminal kinase domain (RPS6KA5, Homo sapiens, UniProt O75582) | 96 |
| MARK1 (Homo sapiens, UniProt Q9P0L2) | 92 |
| MAP3K13 (Homo sapiens, UniProt O43283) | 66 |

Block 5 — SMILES: CCOc1cc2ncnc(Nc3cccc(Br)c3)c2cc1OCC; read-out: enzyme activity; mode: inhibitor; concentration: 0.5 µM; relative to: control
| target | remaining activity |
| --- | --- |
| TYRO3 (Homo sapiens, UniProt Q06418) | 92.2% |
| CSNK1E (Homo sapiens, UniProt P49674) | 93.8% |
| CLK2 (Homo sapiens, UniProt P49760) | 92.6% |
| BRSK2 (Homo sapiens, UniProt Q8IWQ3) | 94% |
| DYRK1A (Homo sapiens, UniProt Q13627) | 98.7% |
| Cyclin-dependent kinase 2, with cyclin E (CDK2, Homo sapiens, UniProt P24941) | 94.4% |
| CLK1 (Homo sapiens, UniProt P49759) | 97.2% |
| PRKCQ (Homo sapiens, UniProt Q04759) | 89.2% |
| SRPK1 (Homo sapiens, UniProt Q96SB4) | 102% |
| MARK1 (Homo sapiens, UniProt Q9P0L2) | 90.3% |
| PRKCZ (Homo sapiens, UniProt Q05513) | 97.8% |
| FLT1 (Homo sapiens, UniProt P17948) | 85% |
| FES (Homo sapiens, UniProt P07332) | 96.8% |
| EPHA2 (Homo sapiens, UniProt P29317) | 80.3% |
| PAK6 (Homo sapiens, UniProt Q9NQU5) | 119% |
| RPS6KA3 (Homo sapiens, UniProt P51812) | 89.9% |
| CAMK1 (Homo sapiens, UniProt Q14012) | 79.9% |
| JAK1 (Homo sapiens, UniProt P23458) | 102% |
| CAMKK1 (Homo sapiens, UniProt Q8N5S9) | 88.2% |
| PIM1 (Homo sapiens, UniProt P11309) | 92.1% |
| ACVRL1 (Homo sapiens, UniProt P37023) | 103% |
| EPHB3 (Homo sapiens, UniProt P54753) | 99.7% |
| SIK2 (Homo sapiens, UniProt Q9H0K1) | 109% |
| YES1 (Homo sapiens, UniProt P07947) | 43.2% |
| MAP3K20 (Homo sapiens, UniProt Q9NYL2) | 89.8% |

Repeated from above (block 2):
| cell line | time | spheroid area |
| --- | --- | --- |
| NCI-H1437 | 162 h | 3.35e+07 a.u. and 2.98e+07 a.u. and 4.6e+07 a.u. and 3.59e+07 a.u. and 3.34e+07 a.u. and 5.15e+07 a.u. |
| KP-4 | 156 h | 2.47e+07 a.u. and 2.53e+07 a.u. and 1.71e+07 a.u. and 2.43e+07 a.u. and 2.15e+07 a.u. and 2.24e+07 a.u. |
| NCI-H358 | 36 h | 4.41e+06 a.u. and 3.41e+06 a.u. and 4.18e+06 a.u. and 3.63e+06 a.u. and 4.03e+06 a.u. and 3.88e+06 a.u. |
| KP-4 | 78 h | 1.55e+07 a.u. and 1.34e+07 a.u. and 1.75e+07 a.u. and 1.58e+07 a.u. and 1.65e+07 a.u. and 1.39e+07 a.u. |
| MEL-JUSO | 276.52 h | 2.07e+07 a.u. and 1.78e+07 a.u. and 2.52e+07 a.u. and 2.29e+07 a.u. and 2.27e+07 a.u. and 3.77e+07 a.u. |
